# Assay results pooled from the literature.
# Compare with care: the assays were run in different laboratories. ± gives the spread as reported.
# Dual specificity calcium/calmodulin-dependent 3',5'-cyclic nucleotide phosphodiesterase 1B: Dual specificity calcium/calmodulin-dependent 3',5'-cyclic nucleotide phosphodiesterase 1B (Homo sapiens, UniProt Q01064)
# UniProt Q01064, sequence (whole entry, looked up): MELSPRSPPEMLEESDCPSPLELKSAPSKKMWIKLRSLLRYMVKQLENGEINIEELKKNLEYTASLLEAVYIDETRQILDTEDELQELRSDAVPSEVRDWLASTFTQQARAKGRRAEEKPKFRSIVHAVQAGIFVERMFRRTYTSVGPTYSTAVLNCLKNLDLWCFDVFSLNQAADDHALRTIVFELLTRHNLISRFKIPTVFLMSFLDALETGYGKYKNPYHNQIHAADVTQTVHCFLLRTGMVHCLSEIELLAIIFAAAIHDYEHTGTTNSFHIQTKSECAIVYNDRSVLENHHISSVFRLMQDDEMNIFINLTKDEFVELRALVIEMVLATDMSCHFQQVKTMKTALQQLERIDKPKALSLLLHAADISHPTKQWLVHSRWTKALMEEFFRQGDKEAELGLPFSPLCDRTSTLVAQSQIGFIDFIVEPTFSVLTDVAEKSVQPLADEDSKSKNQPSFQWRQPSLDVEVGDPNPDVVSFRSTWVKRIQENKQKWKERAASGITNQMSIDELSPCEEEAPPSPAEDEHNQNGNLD
# HSPA1A with Hdj2: Heat shock 70 kDa protein 1A, with Hdj2 (HSPA1A, Homo sapiens, UniProt P0DMV8)
# UniProt P0DMV8, sequence (whole entry, looked up): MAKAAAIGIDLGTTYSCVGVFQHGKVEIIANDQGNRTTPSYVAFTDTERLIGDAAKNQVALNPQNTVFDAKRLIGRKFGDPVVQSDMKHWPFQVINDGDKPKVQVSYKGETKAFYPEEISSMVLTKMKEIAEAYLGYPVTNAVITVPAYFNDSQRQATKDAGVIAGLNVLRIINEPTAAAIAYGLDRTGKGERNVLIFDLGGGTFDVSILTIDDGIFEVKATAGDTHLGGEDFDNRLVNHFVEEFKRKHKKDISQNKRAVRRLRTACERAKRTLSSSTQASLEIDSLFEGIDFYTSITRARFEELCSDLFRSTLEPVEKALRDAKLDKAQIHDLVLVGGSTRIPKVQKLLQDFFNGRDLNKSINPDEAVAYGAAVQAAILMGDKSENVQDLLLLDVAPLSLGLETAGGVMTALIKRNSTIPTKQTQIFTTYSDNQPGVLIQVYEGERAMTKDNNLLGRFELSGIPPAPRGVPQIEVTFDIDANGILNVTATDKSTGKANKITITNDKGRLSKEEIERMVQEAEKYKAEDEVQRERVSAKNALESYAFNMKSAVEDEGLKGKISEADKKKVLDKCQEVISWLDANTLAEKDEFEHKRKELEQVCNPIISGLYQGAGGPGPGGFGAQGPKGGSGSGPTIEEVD
# MAL12: Alpha-glucosidase MAL12 (MAL12, Saccharomyces cerevisiae S288c, UniProt P53341)
# UniProt P53341, sequence (whole entry, looked up): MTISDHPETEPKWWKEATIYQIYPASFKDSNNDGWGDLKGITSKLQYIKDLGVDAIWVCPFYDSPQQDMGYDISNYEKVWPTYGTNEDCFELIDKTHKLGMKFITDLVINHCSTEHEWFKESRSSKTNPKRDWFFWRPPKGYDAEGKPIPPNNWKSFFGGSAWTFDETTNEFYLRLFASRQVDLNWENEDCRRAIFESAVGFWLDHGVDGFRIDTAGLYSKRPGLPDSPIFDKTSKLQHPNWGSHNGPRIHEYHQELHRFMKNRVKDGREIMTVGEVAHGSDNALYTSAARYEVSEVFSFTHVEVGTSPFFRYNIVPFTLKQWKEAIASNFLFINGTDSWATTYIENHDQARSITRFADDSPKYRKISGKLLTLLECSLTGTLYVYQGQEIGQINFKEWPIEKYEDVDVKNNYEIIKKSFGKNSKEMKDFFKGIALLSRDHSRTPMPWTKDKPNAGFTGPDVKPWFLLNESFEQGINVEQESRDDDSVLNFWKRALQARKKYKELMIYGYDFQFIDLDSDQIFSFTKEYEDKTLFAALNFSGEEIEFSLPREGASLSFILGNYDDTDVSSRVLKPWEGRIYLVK
# SCN9A: Sodium channel protein type 9 subunit alpha (SCN9A, Homo sapiens, UniProt Q15858)
# UniProt Q15858, sequence (whole entry, looked up): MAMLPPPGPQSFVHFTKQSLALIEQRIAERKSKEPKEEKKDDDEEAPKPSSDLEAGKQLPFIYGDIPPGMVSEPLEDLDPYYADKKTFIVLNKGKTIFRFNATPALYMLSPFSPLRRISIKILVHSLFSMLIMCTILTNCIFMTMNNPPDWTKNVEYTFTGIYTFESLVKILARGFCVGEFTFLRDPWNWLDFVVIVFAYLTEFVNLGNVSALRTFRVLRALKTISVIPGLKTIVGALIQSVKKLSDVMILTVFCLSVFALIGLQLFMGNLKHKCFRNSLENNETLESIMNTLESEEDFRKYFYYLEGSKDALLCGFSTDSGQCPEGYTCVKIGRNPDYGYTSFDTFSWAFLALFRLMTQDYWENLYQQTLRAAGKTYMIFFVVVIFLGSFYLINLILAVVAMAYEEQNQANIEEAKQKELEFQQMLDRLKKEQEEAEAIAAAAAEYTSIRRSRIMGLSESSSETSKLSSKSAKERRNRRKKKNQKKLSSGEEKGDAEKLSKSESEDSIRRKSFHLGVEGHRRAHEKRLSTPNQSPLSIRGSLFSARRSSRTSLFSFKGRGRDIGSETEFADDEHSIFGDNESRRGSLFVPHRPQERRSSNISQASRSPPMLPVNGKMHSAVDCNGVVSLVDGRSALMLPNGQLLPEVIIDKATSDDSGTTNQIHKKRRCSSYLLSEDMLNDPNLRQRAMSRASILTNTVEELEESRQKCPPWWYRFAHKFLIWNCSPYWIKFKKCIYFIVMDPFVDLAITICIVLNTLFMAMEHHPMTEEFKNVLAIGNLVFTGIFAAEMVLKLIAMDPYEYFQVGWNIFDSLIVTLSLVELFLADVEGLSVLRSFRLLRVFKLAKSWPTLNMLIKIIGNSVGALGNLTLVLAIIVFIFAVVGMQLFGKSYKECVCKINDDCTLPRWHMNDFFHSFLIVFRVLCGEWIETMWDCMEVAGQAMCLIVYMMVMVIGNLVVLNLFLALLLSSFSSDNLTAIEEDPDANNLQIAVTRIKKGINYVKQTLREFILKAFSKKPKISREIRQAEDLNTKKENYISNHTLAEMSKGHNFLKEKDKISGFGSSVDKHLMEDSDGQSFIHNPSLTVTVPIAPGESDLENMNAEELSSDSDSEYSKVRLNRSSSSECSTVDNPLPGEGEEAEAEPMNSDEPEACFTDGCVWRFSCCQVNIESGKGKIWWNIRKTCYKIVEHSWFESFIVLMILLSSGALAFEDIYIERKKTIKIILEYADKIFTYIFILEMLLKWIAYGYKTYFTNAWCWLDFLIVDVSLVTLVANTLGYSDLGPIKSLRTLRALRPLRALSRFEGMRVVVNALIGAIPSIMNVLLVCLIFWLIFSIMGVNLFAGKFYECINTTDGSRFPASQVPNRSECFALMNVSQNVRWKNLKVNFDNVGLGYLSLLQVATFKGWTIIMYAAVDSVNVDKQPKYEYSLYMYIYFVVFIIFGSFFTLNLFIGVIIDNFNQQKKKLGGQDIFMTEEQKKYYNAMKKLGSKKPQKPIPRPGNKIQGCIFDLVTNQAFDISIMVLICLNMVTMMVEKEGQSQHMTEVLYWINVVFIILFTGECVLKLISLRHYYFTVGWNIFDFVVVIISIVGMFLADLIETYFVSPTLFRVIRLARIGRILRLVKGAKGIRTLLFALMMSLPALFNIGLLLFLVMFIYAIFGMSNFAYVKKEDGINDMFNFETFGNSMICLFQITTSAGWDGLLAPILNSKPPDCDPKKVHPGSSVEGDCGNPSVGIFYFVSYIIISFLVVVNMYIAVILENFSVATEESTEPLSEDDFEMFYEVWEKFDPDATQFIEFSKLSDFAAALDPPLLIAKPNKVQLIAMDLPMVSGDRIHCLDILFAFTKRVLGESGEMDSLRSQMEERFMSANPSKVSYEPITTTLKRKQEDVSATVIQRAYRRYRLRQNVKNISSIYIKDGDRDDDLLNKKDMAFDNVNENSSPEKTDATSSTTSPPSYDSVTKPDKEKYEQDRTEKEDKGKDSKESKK
# WWOX WW1 domain: WW domain-containing oxidoreductase, WW1 domain (WWOX, Homo sapiens, UniProt Q9NZC7)
# UniProt Q9NZC7, sequence (whole entry, unmodified, looked up): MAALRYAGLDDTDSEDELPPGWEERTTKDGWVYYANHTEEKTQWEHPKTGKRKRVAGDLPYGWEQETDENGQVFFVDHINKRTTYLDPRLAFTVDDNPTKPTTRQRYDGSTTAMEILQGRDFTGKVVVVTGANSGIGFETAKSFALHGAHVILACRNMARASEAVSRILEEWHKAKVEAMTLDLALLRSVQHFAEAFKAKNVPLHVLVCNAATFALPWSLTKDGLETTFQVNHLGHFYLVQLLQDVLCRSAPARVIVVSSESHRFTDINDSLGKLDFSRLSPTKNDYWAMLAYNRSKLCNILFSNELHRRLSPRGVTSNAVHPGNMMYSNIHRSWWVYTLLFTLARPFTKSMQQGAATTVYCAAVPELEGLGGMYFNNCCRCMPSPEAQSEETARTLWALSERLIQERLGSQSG
# UniProt P69905, sequence (whole entry, looked up): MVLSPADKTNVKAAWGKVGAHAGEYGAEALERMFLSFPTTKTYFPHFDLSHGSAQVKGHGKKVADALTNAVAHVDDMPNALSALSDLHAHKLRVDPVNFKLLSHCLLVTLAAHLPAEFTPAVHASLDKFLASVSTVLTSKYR
# UniProt Q15758, sequence (whole entry, looked up): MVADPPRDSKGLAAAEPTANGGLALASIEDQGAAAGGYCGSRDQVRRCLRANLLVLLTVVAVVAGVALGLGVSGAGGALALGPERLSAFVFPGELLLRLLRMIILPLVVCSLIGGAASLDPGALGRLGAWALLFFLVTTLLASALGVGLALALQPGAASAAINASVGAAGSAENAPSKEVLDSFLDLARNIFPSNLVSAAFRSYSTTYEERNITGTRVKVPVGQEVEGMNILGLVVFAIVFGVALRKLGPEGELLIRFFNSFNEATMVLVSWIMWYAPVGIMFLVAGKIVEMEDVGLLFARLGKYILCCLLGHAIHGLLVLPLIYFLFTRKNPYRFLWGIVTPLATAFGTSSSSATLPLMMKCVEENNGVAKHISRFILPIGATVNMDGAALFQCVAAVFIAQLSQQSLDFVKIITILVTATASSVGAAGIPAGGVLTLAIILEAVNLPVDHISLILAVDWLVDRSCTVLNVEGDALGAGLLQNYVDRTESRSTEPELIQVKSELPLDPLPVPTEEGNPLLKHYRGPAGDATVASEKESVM
Molecule,target,assay,system,setting,scale,measurement,result
CC/C=C/[C@H](CC)C/C(=C/[C@@]1(CC)C[C@H](CC)[C@H](CC(=O)O)OO1)CC,"Endothelin-1 receptor (EDNRA, Homo sapiens, UniProt P25101)","ligand displacement, radioligand",,"10 µg/mL, 30 min",,remaining binding,85%
VLASVSATHAKSSPY,human IgE,peptide microarray,"peptide, walnut-allergic patient sera","concentration not given, 16 h, 4 °C",,patients with IgE binding,25%
Clc1cccc(Nc2nnc(-c3ccccc3)c3ccccc23)c1,"Dual specificity calcium/calmodulin-dependent 3',5'-cyclic nucleotide phosphodiesterase 1B","cAMP hydrolysis, inhibitor, fluorescence polarization",recombinant enzyme,"up to 100 µM, 30 min preincubation, 30 °C, together with: fluorescein-cAMP 25 nM",,IC50,inactive
CC1=C(C(=O)OCc2ccccc2)C(c2ccc(-c3ccccc3C)cc2)NC(=S)N1Cc1ccc(-c2nnn[nH]2)cc1 (stereo not shown),HSPA1A with Hdj2,"ATPase activity, inhibitor",,"100 µM, Hsp40-stimulated activity, together with: Hdj2 Hsp70:Hsp40 1:0.5","baseline: DMSO, negative means inhibition",fold change in activity,-3.7 fold
C[N+](C)(C)C[C@@H](O)CC(=O)[O-],"Organic cation/carnitine transporter 2 (SLC22A5, Homo sapiens, UniProt O76082)","transporter uptake, inhibitor",,5 µM,,inhibition,24.4%
CCCCCCCCCCCCCCCC(=O)OC[C@H](COP(=O)(O)OC[C@H](N)C(=O)O)OC(=O)CCCCCNc1ccc([N+](=O)[O-])c2nonc12,"spg-20 (Caenorhabditis elegans, UniProt O44735)",native gel NBD fluorescence,,"concentration not given, 2 h, on ice, NBD-labelled compound",,lipid binding stoichiometry,~1 lipids per protein
RNGMKNQFNL,"H-2 class I histocompatibility antigen, D-B alpha chain, 17 (H2-D1, Mus musculus, UniProt P01899)","H2-D binding, flow cytometry","peptide, RMA-S","10 µg per 100 µL, 3 h",,MFI increase,539%
COc1cc(-c2cc(=O)c3ccc(O)c(OC)c3o2)cc(O)c1OC,MAL12,"enzyme activity, inhibitor, absorbance",,10 µM,,inhibition,3%
O=C(N[C@H]1CNC1=O)c1ccc(-c2ccccc2)cc1,"N-acylethanolamine-hydrolyzing acid amidase (NAAA, Homo sapiens, UniProt Q02083)","enzyme activity, inhibitor, fluorogenic PAMCA hydrolysis",,"pH 4.5, together with: 5 µM PAMCA",,IC50,inactive
O=Cc1c(O)cccc1OCc1cccc(CO)n1,"Hemoglobin subunit alpha, with beta chain (HBA1, Homo sapiens, UniProt P69905)","binding, cation-exchange HPLC",,37 °C,,koff,0.00161 s⁻¹
CC(=O)N[C@H](Cc1ccc(I)cc1)C(=O)N[C@H](Cc1ccc2ccccc2c1)C(=O)N[C@@H](Cc1ccc2ccccc2c1)C(=O)N[C@@H](CCCNC(=N)N)C(N)=O,"Melanocyte-stimulating hormone receptor (Mc1r, Mus musculus, UniProt Q01727)","cAMP, agonist, AlphaScreen",HEK293,,,Emax,20%
O=C(O)c1ccc2c(c1)OCCO2,"PY04617 (Plasmodium yoelii, UniProt Q7RFT5)",ultrafiltration HPLC-UV,,"0.1 mM, pH 7.25, 4 °C, 6.5% DMSO, together with: methionine competitor",,UV signal reduction,51.8 ± 2.8%
CC(C)C[C@H](NC(=O)[C@@H](NC(=O)[C@@H](N)[C@@H](C)O)C(C)C)C(=O)N1CCC[C@H]1C(=O)N1CCC[C@H]1C(=O)N1CCC[C@H]1C(=O)N1CCC[C@H]1C(=O)N[C@@H](Cc1ccc(O)cc1)C(=O)N[C@@H](CCCNC(=N)N)C(=O)N[C@@H](Cc1c[nH]cn1)C(=O)N[C@@H](CCCNC(=N)N)C(=O)N[C@@H](CC(N)=O)C(=O)O,"WW domain-containing oxidoreductase, WW2 domain Y85W (WWOX, Homo sapiens, UniProt Q9NZC7, Y85W)","binding, ITC",,"pH 7.0, 25 °C",,TΔS,1.68 ± 0.37 kcal/mol
CCCC/C=C\CCCCCCCCCCCC=O,"chemosensory protein 3 (Chilo suppressalis, UniProt V9PY40)","binding, competitive ligand, fluorescence competitive binding",,"highest concentration tested, pH 7.4, protein 2 µM, together with: 1-NPN 2 µM",baseline: no ligand,remaining 1-NPN fluorescence,44.5 ± 2.2%
COc1cc2oc(-c3ccccc3)cc(=O)c2c(OC)c1O,MAL12,"enzyme activity, inhibitor, absorbance",,250 µM,,inhibition,98.4%
CC(=O)N[C@@H](Cc1c[nH]c2ccccc12)C(=O)N[C@H](Cc1cccc2ccccc12)C(=O)N[C@@H](CCCNC(=N)N)C(=O)N[C@@H](Cc1c[nH]c2ccccc12)C(N)=O,"Melanocortin receptor 3 (Mus musculus, UniProt P33033)","receptor activity, agonist, cell-based",,"up to 100 µM, Schild antagonism analysis",,agonist and antagonist activity,inactive
C=CC(=O)Nc1ccccc1Nc1nc(Nc2ccc(N3CCN(C)CC3)cc2)ncc1Cl,"MAP kinase-interacting serine/threonine-protein kinase 2 (MKNK2, Homo sapiens, UniProt Q9HBH9)","probe binding, inhibitor, chemoproteomic competition",NCI-H23 KRAS G12C,"100 nM, 2 h, together with: 2 µM desthiobiotin probe",,labelling,> 50%
O=Cc1ccc(COc2ccccc2[N+](=O)[O-])o1,"Hemoglobin subunit alpha, with sickle beta chain (HBA1, Homo sapiens, UniProt P69905)",oxygen affinity,sickle red cell lysate,2000 µM,baseline: untreated,P50 change,13.4 ± 5.7%
Nc1nc2c(ncn2[C@@H]2O[C@@H]3COP(=O)(O)O[C@H]3[C@H]2O)c(=O)[nH]1,"CNGA1/CNGB1 (Bos taurus, UniProt Q00194+Q14028)","ion current, agonist, inside-out patch clamp",Xenopus oocytes,rod heteromeric channel,baseline: maximum cGMP current at start,Imax relative to cGMP,0.75
CC(=O)c1cccc2c1C(=O)c1cccc(O)c1C2=O,"Signal transducer and activator of transcription 1-alpha/beta, phosphorylated (STAT1, Homo sapiens, UniProt P42224)","DNA binding, inhibitor, TIRF-PBM",,"20 µM, together with: 50 nM STAT1",baseline: high-affinity sites over half sites,binding reduction ratio,4.7 fold
COC(=O)c1scc(C)c1NC(=O)C(C)N1CCOCC1C (stereo not shown),SCN9A,cell membrane chromatography,,,higher = stronger binding,capacity factor k′,12
N[C@@H](CCC(=O)Nc1ccc(F)cc1)C(=O)O,"Neutral amino acid transporter B(0) (SLC1A5, Homo sapiens, UniProt Q15758)",,PC-3,"concentration not given, 5 min, 37 °C, together with: [3H]-L-serine 150 µM",baseline: basal uptake,[3H]-L-serine uptake,93 ± 1%
CC(C)C[C@H](NC(=O)[C@H](C)NC(=O)[C@@H](N)[C@@H](C)O)C(=O)N1CCC[C@H]1C(=O)N1CCC[C@H]1C(=O)N1CCC[C@H]1C(=O)N1CCC[C@H]1C(=O)N[C@@H](Cc1ccc(O)cc1)C(=O)N[C@@H](CCCNC(=N)N)C(=O)N[C@@H](Cc1c[nH]cn1)C(=O)N[C@@H](CCCNC(=N)N)C(=O)N[C@@H](CC(N)=O)C(=O)O,WWOX WW1 domain,"binding to WW1 domain, isothermal titration calorimetry",,"pH 7.0, 25 °C",,entropy term TΔS,1.73 ± 0.34 kcal/mol
CC1=C(C(=O)OCc2ccccc2)C(c2ccc(-c3ccccc3C)cc2)NC(=O)N1CCCCCc1nnn[nH]1 (stereo not shown),HSPA1A with Hdj2,"ATPase activity, inhibitor",,"100 µM, Hsp40-stimulated activity, together with: Hdj2 Hsp70:Hsp40 1:0.5","baseline: DMSO, negative means inhibition",fold change in activity,-3 fold
KKLTVWI,"Alpha-synuclein (SNCA, Homo sapiens, UniProt P37840)","fibril formation, thioflavin T fluorescence",peptide,"2 molar equivalents, 16 h, 37 °C, 1.5 % HFIP, together with: α-synuclein 100 µM",baseline: untreated,remaining aggregation,61 ± 7%
CCCNC(C)C(=O)Nc1c(C)csc1C(=O)OC (stereo not shown),SCN9A,cell membrane chromatography,,,higher = stronger binding,capacity factor k′,33
O=c1cc(-c2ccccc2)oc2cc(O)ccc12,MAL12,"enzyme activity, inhibitor",,"25 µM, together with: p-nitrophenyl-α-D-glucopyranoside",,inhibition,< 1%
CC(C)C[C@H](NC(=O)[C@@H](NC(=O)[C@@H](N)[C@@H](C)O)C(C)C)C(=O)N1CCC[C@H]1C(=O)N1CCC[C@H]1C(=O)N1CCC[C@H]1C(=O)N1CCC[C@H]1C(=O)N[C@@H](Cc1ccc(O)cc1)C(=O)N[C@@H](C)C(=O)N[C@@H](Cc1c[nH]cn1)C(=O)N[C@@H](CCCNC(=N)N)C(=O)N[C@@H](CC(N)=O)C(=O)O,WWOX WW1 domain,"binding to WW1 domain, isothermal titration calorimetry",,"pH 7.0, 25 °C",,entropy term TΔS,0.85 ± 0.38 kcal/mol
CCN(CCO)C(C)C(=O)Nc1c(C)csc1C(=O)OC (stereo not shown),SCN9A,cell membrane chromatography,,,higher = stronger binding,capacity factor k′,0
COc1cc2c(cc1OC)-c1c/c(=N\c3c(C)cc(C)cc3C)n(C)c(=O)n1CC2,"Dual specificity calcium/calmodulin-dependent 3',5'-cyclic nucleotide phosphodiesterase 1B","cAMP hydrolysis, inhibitor",,up to 50 µM,,IC50,inactive
CC(C)[C@H](NC(=O)[C@@H](N)[C@@H](C)O)C(=O)N[C@@H](C)C(=O)N1CCC[C@H]1C(=O)N1CCC[C@H]1C(=O)N1CCC[C@H]1C(=O)N1CCC[C@H]1C(=O)N[C@@H](Cc1ccc(O)cc1)C(=O)N[C@@H](CCCNC(=N)N)C(=O)N[C@@H](Cc1c[nH]cn1)C(=O)N[C@@H](CCCNC(=N)N)C(=O)N[C@@H](CC(N)=O)C(=O)O,WWOX WW1 domain,"binding to WW1 domain, isothermal titration calorimetry",,"concentration not given, pH 7.0, 25 °C",,binding enthalpy ΔH,-6.19 ± 0.6 kcal/mol

# Some of these lines once more:
Molecule,target,assay,system,setting,scale,measurement,result
C[N+](C)(C)C[C@@H](O)CC(=O)[O-],"Organic cation/carnitine transporter 2 (SLC22A5, Homo sapiens, UniProt O76082)","transporter uptake, inhibitor",,5 µM,,inhibition,24.4%
CCCCCCCCCCCCCCCC(=O)OC[C@H](COP(=O)(O)OC[C@H](N)C(=O)O)OC(=O)CCCCCNc1ccc([N+](=O)[O-])c2nonc12,"spg-20 (Caenorhabditis elegans, UniProt O44735)",native gel NBD fluorescence,,"concentration not given, 2 h, on ice, NBD-labelled compound",,lipid binding stoichiometry,~1 lipids per protein
RNGMKNQFNL,"H-2 class I histocompatibility antigen, D-B alpha chain, 17 (H2-D1, Mus musculus, UniProt P01899)","H2-D binding, flow cytometry","peptide, RMA-S","10 µg per 100 µL, 3 h",,MFI increase,539%
